Measurements from different studies.
Parts stem from different laboratories: compare values within a part only. Positions count from the first letter of the parent shown.
Chain of UniProt Q07912 (whole entry, looked up): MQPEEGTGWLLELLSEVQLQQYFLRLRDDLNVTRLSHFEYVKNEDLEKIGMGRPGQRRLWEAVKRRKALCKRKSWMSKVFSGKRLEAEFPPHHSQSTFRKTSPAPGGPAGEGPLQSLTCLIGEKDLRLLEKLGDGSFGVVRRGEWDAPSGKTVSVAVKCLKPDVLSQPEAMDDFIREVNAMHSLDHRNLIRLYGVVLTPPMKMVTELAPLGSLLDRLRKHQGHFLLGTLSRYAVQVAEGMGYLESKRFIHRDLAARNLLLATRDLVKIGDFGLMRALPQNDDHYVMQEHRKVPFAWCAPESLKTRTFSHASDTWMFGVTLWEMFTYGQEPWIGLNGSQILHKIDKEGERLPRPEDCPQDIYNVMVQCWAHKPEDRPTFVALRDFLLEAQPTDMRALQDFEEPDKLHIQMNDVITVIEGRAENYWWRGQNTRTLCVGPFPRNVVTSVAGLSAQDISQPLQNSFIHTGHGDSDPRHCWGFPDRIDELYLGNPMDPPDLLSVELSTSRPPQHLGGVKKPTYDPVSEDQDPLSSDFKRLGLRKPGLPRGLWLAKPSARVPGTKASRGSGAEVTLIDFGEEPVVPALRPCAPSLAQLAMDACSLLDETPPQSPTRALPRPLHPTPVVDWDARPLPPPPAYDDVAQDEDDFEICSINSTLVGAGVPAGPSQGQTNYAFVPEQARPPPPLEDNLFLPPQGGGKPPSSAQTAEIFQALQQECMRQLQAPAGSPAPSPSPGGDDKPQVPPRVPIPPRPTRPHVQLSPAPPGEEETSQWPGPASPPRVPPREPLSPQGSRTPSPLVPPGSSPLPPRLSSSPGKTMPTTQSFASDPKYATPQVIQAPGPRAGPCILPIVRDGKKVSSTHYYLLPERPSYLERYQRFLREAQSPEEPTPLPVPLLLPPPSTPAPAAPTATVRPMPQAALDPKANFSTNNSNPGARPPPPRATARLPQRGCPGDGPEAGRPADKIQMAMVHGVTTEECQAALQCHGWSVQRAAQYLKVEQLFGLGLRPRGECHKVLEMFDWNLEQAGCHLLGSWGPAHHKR

Study 1
Target: ABI1, truncated, D143A, DHFR fusion (Arabidopsis thaliana, UniProt P49597)
Technique: DHFR PCA, dose-response
Medium: yeast
Setting: Hill fit, mean, not affinity
Added: (+)-ABA, dose series
Direction: lower = more sensitive
Endpoint: ABA EC50
Parent: PYL1, truncated, DHFR fusion (Arabidopsis thaliana, UniProt Q8VZS8); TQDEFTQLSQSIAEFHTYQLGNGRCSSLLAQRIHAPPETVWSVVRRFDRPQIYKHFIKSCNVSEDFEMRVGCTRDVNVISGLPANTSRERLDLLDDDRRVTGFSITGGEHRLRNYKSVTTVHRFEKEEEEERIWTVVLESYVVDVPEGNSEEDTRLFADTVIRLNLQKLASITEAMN
Variant = T86A; value = 10.3 µM
Variant = H122I; value = 218 µM
Variant = R123M; value = 4.63 µM
Variant = R98Y; value = 38.4 µM
Variant = T120G; value = 948 µM
Variant = R113F; value = 11.7 µM
Variant = Q167V; value = 6.46 µM
Variant = E174A; value = 12.6 µM

Study 2
Target: Ras GTPase-activating protein-binding protein 1, full length (G3BP1, Homo sapiens, UniProt Q13283)
Chain of UniProt Q13283 (whole entry, looked up): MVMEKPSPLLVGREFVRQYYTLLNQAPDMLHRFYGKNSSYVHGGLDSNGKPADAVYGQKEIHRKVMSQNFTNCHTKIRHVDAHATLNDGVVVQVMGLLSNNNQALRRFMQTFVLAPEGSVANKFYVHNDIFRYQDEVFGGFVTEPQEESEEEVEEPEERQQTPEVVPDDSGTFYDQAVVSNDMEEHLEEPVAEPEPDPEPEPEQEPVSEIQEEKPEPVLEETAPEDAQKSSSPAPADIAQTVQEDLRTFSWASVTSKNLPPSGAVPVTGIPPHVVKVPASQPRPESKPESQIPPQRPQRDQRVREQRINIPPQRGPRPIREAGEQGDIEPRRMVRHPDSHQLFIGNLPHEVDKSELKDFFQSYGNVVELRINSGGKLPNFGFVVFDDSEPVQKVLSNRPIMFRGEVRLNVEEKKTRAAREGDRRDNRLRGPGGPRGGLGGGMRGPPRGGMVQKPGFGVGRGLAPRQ
Technique: RNA Bind-n-Seq
Form: RNA
Medium: in vitro
Tested at: 200 nM
Setting: whole 134-nt RNA, ends assumed
Added: 150 mM KCl
Reference: input library
Direction: higher = stronger binding
Endpoint: log2 enrichment
Constant ends, left off below: GGGAGUUCUACAGUCCGACGAUC … UGGAAUUCUCGGGUGUCAAGG
Oligonucleotide = CUGUGCUACACAUCGUAUGUACCGAAUCGGGGUUUGGGGAAAAAAAGGGGUUUUUUUGGGGAAAGUAUUAUGUUACGCCGUUCGGAUCUG; value = -0.106
Oligonucleotide = CUCAAGUCCUGUGCUACACAUCGUAUGUACCGAAUCGGCCGGCCGGGGCCGGGAAAGUAUUAUGUUACGCCGUUCGGAUCUGCACUUCCA; value = -0.195
Oligonucleotide = UCAAGUCCUGUGCUACACAUCGUAUGUACCGAAUCGGUUUUUUUGGAAAGGUGGAAAGUAUUAUGUUACGCCGUUCGGAUCUGCACUUCC; value = -0.81
Oligonucleotide = UCGCCCUGGUGGCAUGCGGGGAGGAAGAGGUGGCCUCAUGGAUCGUGGUGGUCCCGGUGGAAUGUUCAGAGGUGGCCGUGGUGGAGACAG; value = 0.203
Oligonucleotide = CCUCAAGUCCUGUGCUACACAUCGUAUGUACCGAAUCGGUGGGGUGGGUGGGGAAAGUAUUAUGUUACGCCGUUCGGAUCUGCACUUCCA; value = 1.27
Oligonucleotide = CAAGUCCUGUGCUACACAUCGUAUGUACCGAAUCGGAAAGGUUUGGUUUUUUUGGAAAGUAUUAUGUUACGCCGUUCGGAUCUGCACUUC; value = -0.863
Oligonucleotide = CUGUGCUACACAUCGUAUGUACCGAAUCGGUUUUUUUGGGGUUUUUUUGGGGUUUUUUUGGAAAGUAUUAUGUUACGCCGUUCGGAUCUG; value = -0.891
Oligonucleotide = AGUCCUGUGCUACACAUCGUAUGUACCGAAUCGGGCCCCGGGGCCCCGGGGCCCCGGAAAGUAUUAUGUUACGCCGUUCGGAUCUGCACU; value = 0.374

Study 3
Target: Sox-I, HMG box (Salpingoeca helianthica)
Technique: Spec-seq
Form: double-stranded DNA, one strand shown
Medium: in vitro
Tested at: not given
Setting: whole probe, mean of replicates
Reference: not given
Direction: lower = stronger binding
Endpoint: relative binding energy
Constant ends, left off below: GAGTCGTCTCGTCAGCAC … CCGTAGAGCACTCAGGTC
Residues (chain): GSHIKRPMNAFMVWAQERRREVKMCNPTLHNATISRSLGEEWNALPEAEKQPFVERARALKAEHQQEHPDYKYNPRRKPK
Oligonucleotide = TACCGTT; value = 0.32 ln ratio
Oligonucleotide = ACGCGTT; value = 0.248 ln ratio
Oligonucleotide = CATTTAC; value = 0.591 ln ratio
Oligonucleotide = CATGGAC; value = 0.944 ln ratio
Oligonucleotide = TGCAGTT; value = 0.284 ln ratio
Oligonucleotide = CCAAGTT; value = 0.596 ln ratio
Oligonucleotide = CATTCTT; value = -0.786 ln ratio
Oligonucleotide = CATCGCT; value = 0.574 ln ratio

Mixed results
Structure (SMILES) = Cn1nc2c3c(cccc31)C(=O)c1ccccc1-2; target = Activated CDC42 kinase 1 (TNK2, Homo sapiens, UniProt Q07912); read-out = enzyme activity; mode = inhibitor; tested at = 0.5 µM; reference = control; endpoint = remaining activity; value = 83.3%

A few entries again (study 3):
Oligonucleotide = CATTCTT; value = -0.786 ln ratio
Oligonucleotide = ACGCGTT; value = 0.248 ln ratio
Oligonucleotide = TGCAGTT; value = 0.284 ln ratio
